Assay results from different studies.
Parts stem from different laboratories: compare values within a part only.

Sample 1
Target: Centromere-binding protein 1, full length, N-terminal tag (CBF1, Saccharomyces cerevisiae, UniProt P17106, residues 1-351)
UniProt P17106, sequence (whole entry, looked up): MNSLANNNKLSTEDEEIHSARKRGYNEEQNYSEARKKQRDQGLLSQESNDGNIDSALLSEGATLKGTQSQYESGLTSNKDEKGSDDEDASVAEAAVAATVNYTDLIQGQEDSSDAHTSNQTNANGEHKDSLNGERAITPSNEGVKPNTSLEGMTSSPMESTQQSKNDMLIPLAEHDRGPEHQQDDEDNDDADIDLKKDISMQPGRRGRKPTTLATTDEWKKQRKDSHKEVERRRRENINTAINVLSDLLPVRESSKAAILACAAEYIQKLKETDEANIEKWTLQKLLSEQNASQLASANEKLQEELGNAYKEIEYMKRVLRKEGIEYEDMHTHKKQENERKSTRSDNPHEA
Method: protein-binding microarray
Form: double-stranded DNA, one strand shown
Sample: in vitro
Concentration: 0.8 µM
Setting: whole 60-bp probe, no competitor
Direction: higher = stronger binding
| Strand | fluorescence intensity |
| --- | --- |
| GAAGAAGAAAAAGAACACGTTGAAAACGAACATTAGGTCTTGATTCGCTTGACGCTGCTG | 593 a.u. |
| GAAAACTTGAACGATTTCACCAGATGTTTGTACTAGGTCTTGATTCGCTTGACGCTGCTG | 528 a.u. |
| CCTAACTACTATAATCATGTGTTATAGCTTCGTACAGTCTTGATTCGCTTGACGCTGCTG | 888 a.u. |

Sample 2
Target: Interferon regulatory factor 3, full length, phosphomimetic (IRF3, Homo sapiens, UniProt Q14653, residues 1-427, S386D/S396D/S398D/S402D/T404D/S405D)
Method: protein-binding microarray
Form: double-stranded DNA, one strand shown
Sample: in vitro
Concentration: 2540 nM top
Setting: 60-bp whole probe
With: salmon DNA 0.4 mg/ml
Reference: random background probes
Direction: higher = stronger binding
Target sequence (chain): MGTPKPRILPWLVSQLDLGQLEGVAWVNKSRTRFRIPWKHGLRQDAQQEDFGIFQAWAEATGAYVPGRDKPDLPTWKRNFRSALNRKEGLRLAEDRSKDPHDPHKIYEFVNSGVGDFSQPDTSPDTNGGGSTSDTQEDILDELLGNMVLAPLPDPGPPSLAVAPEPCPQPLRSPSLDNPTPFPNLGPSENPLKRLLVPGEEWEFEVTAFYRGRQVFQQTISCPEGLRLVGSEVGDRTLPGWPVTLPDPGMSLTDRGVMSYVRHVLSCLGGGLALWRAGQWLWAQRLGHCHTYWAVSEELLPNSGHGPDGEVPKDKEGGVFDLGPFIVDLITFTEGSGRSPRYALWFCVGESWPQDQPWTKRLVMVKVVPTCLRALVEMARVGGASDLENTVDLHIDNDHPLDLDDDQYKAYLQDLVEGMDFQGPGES
| Strand | fitted relative affinity |
| --- | --- |
| GCCTAGCACGACGGTCTCCTTCTACTGACGTGCTAGGTCTTGATTCGCTTGACGCTGCTG | 3.13 z-score |
| GCCTAGCACTTTGGTATCGGTCTCGGTTAGTGCTAGGTCTTGATTCGCTTGACGCTGCTG | 5.09 z-score |
| GCCTAGCACCTCCTGCAGCTGCCCTCCTGGTGCTAGGTCTTGATTCGCTTGACGCTGCTG | -0.214 z-score |

Sample 3
Target: Histone acetyltransferase KAT6A, winged helix 2, GST fusion (KAT6A, Homo sapiens, UniProt Q92794, residues 85-181)
Method: protein binding microarray
Form: double-stranded DNA, one strand shown
Sample: in vitro
Concentration: not given
Setting: 8-mer, flanks averaged, mean of 2 arrays, mostly near background
Reference: not given
Direction: higher = stronger binding
Construct (chain): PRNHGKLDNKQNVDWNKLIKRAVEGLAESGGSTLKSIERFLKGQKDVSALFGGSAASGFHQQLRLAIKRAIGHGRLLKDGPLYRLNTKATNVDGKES
| Strand | E-score |
| --- | --- |
| CATAAGTC | -0.0433 |
| AGCAAAAA | 0.0276 |
| ACGCCGGC | 0.184 |
| GAAAGTTC | -0.0736 |

Mixed results
| Substance | target | assay | system | setting | scale | measurement | result |
| --- | --- | --- | --- | --- | --- | --- | --- |
| PhoQ, residues 284 288 289 292 302 303 AMDMFI | PhoP, residues 12 14 15 18 19 SPWRL (Escherichia coli, UniProt P23836) | Sort-seq, refers to: YFP reporter | E. coli | PhoQ-PhoP variant library, with: 10 µM Mg2+ | reference: high Mg2+ state, higher = stronger signaling | fold induction | 1.97 |

A few entries again (sample 2):
| Strand | fitted relative affinity |
| --- | --- |
| GCCTAGCACTTTGGTATCGGTCTCGGTTAGTGCTAGGTCTTGATTCGCTTGACGCTGCTG | 5.09 z-score |
| GCCTAGCACCTCCTGCAGCTGCCCTCCTGGTGCTAGGTCTTGATTCGCTTGACGCTGCTG | -0.214 z-score |
